{"data": "Assay results gathered from unrelated publications", "note": "Parts stem from different laboratories: compare values within a part only.", "chain of UniProt Q5VT25 (whole entry, looked up)": "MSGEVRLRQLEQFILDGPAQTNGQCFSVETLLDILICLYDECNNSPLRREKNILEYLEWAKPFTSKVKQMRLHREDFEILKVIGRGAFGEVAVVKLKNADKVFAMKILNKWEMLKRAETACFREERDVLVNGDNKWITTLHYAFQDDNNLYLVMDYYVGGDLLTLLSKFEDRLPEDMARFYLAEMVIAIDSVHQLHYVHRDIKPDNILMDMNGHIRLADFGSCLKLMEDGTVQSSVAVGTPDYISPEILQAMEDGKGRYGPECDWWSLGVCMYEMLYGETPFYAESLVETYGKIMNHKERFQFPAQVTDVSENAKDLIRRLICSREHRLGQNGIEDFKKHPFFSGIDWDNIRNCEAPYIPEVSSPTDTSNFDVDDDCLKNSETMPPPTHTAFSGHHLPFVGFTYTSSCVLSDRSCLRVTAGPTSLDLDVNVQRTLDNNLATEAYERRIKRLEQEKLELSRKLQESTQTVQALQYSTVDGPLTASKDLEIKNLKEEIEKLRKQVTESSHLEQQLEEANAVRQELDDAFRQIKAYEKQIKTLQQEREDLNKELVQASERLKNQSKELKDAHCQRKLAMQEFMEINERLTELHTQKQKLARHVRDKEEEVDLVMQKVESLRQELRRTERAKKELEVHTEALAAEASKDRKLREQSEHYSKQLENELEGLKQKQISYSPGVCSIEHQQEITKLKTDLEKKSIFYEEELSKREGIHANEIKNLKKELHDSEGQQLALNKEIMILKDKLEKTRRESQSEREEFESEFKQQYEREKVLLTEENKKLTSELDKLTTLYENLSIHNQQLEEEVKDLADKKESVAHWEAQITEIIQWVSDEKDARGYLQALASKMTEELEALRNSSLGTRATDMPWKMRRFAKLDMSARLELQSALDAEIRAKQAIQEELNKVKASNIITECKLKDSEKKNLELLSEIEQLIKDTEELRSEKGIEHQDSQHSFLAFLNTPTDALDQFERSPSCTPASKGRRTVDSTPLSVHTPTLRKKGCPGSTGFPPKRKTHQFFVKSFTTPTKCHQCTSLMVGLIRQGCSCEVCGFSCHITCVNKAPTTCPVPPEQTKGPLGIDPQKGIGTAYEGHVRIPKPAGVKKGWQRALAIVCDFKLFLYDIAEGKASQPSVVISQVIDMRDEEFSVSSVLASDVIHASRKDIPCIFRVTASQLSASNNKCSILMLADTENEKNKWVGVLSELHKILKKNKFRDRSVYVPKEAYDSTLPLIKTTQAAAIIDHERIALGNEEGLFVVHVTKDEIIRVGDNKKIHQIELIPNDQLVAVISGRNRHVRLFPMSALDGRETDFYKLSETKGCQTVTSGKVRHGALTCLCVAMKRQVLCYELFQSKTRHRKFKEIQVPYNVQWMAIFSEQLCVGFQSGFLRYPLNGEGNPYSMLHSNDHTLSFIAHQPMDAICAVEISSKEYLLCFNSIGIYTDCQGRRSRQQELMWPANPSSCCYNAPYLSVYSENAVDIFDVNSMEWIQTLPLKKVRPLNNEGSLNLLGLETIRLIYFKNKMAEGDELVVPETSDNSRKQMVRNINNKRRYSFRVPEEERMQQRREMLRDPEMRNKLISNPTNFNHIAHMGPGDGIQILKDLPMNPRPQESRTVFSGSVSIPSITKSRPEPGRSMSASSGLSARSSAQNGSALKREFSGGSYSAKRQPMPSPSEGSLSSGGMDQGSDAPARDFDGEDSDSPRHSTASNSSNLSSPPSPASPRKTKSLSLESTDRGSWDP", "chain of UniProt Q02763 (whole entry, looked up)": "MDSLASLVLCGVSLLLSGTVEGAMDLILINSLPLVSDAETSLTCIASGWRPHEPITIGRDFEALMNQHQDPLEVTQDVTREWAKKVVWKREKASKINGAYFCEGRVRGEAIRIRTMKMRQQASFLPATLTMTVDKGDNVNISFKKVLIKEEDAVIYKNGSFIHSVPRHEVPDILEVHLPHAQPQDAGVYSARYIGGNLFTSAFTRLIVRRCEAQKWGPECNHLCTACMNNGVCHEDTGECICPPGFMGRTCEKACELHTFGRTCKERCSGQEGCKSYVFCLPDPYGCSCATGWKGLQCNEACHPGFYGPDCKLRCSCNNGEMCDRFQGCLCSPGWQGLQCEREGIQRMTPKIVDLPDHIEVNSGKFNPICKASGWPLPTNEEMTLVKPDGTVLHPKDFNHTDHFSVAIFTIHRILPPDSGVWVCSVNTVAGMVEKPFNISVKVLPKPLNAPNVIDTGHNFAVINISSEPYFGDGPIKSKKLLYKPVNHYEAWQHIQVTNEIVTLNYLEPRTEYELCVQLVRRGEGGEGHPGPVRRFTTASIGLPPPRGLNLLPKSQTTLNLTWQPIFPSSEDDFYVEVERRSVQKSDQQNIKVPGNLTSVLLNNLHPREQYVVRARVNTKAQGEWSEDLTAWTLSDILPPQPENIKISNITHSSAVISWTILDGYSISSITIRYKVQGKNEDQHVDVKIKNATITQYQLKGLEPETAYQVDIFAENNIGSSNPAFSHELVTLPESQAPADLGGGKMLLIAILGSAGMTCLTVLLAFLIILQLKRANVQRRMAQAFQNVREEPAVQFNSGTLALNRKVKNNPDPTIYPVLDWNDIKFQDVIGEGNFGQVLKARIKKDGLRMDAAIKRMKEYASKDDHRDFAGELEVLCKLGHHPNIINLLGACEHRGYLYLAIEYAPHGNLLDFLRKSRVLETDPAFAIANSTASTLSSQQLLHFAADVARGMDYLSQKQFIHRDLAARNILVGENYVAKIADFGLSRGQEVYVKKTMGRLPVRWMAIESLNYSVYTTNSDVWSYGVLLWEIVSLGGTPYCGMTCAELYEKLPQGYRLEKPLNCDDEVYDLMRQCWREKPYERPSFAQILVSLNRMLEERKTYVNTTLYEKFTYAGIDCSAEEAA", "chain of UniProt P17948 (whole entry, looked up)": "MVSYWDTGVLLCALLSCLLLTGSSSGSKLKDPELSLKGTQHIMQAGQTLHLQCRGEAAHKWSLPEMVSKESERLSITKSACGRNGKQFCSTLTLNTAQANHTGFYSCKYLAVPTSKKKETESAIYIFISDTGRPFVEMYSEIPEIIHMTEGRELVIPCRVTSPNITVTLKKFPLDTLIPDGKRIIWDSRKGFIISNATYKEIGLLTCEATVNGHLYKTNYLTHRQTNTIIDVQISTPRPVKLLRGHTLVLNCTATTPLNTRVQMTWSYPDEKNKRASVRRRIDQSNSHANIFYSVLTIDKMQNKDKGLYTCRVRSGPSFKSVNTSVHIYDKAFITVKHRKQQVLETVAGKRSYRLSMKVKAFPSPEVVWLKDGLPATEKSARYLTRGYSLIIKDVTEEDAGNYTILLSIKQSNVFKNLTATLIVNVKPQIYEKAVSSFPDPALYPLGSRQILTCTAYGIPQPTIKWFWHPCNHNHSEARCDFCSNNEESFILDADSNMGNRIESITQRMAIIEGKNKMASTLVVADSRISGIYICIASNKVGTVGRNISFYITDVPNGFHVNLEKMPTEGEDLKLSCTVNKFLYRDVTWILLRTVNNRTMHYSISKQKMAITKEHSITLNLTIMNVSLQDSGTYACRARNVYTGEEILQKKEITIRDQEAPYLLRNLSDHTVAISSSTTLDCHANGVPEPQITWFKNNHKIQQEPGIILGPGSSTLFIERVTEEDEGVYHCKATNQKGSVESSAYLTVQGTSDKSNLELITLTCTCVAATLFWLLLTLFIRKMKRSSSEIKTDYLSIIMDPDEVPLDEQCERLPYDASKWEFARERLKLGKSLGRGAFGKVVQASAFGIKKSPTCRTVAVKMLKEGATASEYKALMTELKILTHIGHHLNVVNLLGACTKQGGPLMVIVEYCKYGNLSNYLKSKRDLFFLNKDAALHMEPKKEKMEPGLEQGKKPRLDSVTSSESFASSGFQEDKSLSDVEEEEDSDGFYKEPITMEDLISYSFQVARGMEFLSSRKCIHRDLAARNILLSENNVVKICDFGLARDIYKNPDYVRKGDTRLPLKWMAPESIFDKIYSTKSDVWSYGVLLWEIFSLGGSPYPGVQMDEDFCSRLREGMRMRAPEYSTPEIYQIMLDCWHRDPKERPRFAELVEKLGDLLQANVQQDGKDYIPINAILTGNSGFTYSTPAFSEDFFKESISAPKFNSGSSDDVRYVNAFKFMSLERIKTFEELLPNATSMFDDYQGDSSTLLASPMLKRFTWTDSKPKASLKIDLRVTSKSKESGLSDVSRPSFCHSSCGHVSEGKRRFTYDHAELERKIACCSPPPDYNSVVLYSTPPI", "chain of UniProt P49841 (whole entry, looked up)": "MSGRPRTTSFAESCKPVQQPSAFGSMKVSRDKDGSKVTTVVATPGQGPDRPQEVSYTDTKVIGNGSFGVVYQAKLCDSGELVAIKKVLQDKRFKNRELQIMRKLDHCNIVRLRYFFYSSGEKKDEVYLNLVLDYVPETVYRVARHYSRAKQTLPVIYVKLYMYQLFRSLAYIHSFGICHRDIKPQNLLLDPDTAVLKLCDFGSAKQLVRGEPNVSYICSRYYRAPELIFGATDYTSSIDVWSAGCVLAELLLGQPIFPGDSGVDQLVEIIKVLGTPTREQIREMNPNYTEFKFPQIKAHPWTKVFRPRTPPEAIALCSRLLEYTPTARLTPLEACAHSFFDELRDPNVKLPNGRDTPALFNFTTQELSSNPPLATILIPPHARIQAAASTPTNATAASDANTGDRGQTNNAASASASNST", "chain of UniProt P15735 (whole entry, looked up)": "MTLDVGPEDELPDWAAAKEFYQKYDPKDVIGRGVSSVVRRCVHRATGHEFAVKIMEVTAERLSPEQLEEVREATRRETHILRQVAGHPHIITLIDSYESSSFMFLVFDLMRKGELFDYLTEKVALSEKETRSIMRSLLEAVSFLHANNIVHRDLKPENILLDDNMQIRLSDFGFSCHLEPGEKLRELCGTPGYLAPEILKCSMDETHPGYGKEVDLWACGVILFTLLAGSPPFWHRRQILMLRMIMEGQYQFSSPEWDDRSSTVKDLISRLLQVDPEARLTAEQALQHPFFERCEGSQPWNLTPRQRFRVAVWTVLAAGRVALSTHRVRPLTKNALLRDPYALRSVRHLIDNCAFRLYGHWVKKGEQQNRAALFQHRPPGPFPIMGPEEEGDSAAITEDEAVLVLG"}
{"data": "Series 1", "Structure (SMILES)": "CN(C1COC1)C(C)(C)/C=C(\\C#N)C(=O)N1CCC[C@H]1Cn1nc(-c2ccc(Oc3ccccc3)cc2F)c2c(N)ncnc21", "observed": "kinase activity"}
{"target": "STK26 (Homo sapiens, UniProt Q9P289)", "tested at": "1 µM", "inhibition [%]": 5}
{"target": "SRPK1 (Homo sapiens, UniProt Q96SB4)", "tested at": "0.1 µM", "inhibition [%]": 0}
{"target": "DYRK1A (Homo sapiens, UniProt Q13627)", "tested at": "0.1 µM", "inhibition [%]": 2}
{"target": "FER (Homo sapiens, UniProt P16591)", "tested at": "1 µM", "inhibition [%]": 3}
{"target": "SPHK1 (Homo sapiens, UniProt Q9NYA1)", "tested at": "1 µM", "inhibition [%]": -5}
{"target": "PHKG2 (Homo sapiens, UniProt P15735)", "tested at": "0.1 µM", "inhibition [%]": 6}
{"target": "GSK3B (Homo sapiens, UniProt P49841)", "tested at": "1 µM", "inhibition [%]": 3}
{"target": "HIPK3 (Homo sapiens, UniProt Q9H422)", "tested at": "1 µM", "inhibition [%]": 2}
{"target": "PAK1 (Homo sapiens, UniProt Q13153)", "tested at": "1 µM", "inhibition [%]": -3}
{"target": "ITK (Homo sapiens, UniProt Q08881)", "tested at": "0.1 µM", "inhibition [%]": 0}
{"target": "CDC42BPA (Homo sapiens, UniProt Q5VT25)", "tested at": "1 µM", "inhibition [%]": 0}
{"target": "TNK2 (Homo sapiens, UniProt Q07912)", "tested at": "0.1 µM", "inhibition [%]": 3}
{"target": "MET (Homo sapiens, UniProt P08581)", "tested at": "0.1 µM", "inhibition [%]": 2}
{"target": "FLT1 (Homo sapiens, UniProt P17948)", "tested at": "0.1 µM", "inhibition [%]": 1}
{"target": "TEK (Homo sapiens, UniProt Q02763)", "tested at": "1 µM", "inhibition [%]": 12}
{"data": "Series 2", "Compound": "COCCCCCCC1CC2C(CCC3(C)C(O)CCC23)c2ccc(O)cc21 (centres unmarked)"}
{"cell line": "PANC-1", "technique": "DNA microarray", "measured": "GZMK", "tested at": "50 µM", "baseline": "untreated cells", "mRNA level ratio": 10.4}
{"cell line": "PANC-1", "technique": "DNA microarray", "measured": "CCL22", "tested at": "10 µM", "baseline": "untreated cells", "mRNA level ratio": 1}
{"cell line": "PANC-1", "technique": "microarray", "measured": "CCL8", "tested at": "10 µM", "baseline": "untreated", "mRNA level ratio": 32.6}
{"cell line": "SK-OV-3", "technique": "microarray", "measured": "CCL8", "tested at": "10 µM", "baseline": "untreated", "mRNA level ratio": 54.7}
{"cell line": "SK-OV-3", "technique": "DNA microarray", "measured": "CCL22", "tested at": "10 µM", "baseline": "untreated cells", "mRNA level ratio": 1}
{"cell line": "A549", "technique": "microarray", "measured": "ADAMTS14", "tested at": "50 µM", "baseline": "untreated", "mRNA level ratio": 1.14}
{"cell line": "PANC-1", "technique": "DNA microarray", "measured": "GZMK", "tested at": "10 µM", "baseline": "untreated cells", "mRNA level ratio": 10.2}
{"cell line": "SK-OV-3", "technique": "microarray", "measured": "ISG20L1", "tested at": "50 µM", "baseline": "untreated", "mRNA level ratio": 2.61}
{"cell line": "SK-OV-3", "technique": "DNA microarray", "measured": "ACTB", "tested at": "50 µM", "baseline": "untreated cells", "mRNA level ratio": 0.201}
{"cell line": "SK-OV-3", "technique": "microarray", "measured": "ISG20L1", "tested at": "10 µM", "baseline": "untreated", "mRNA level ratio": 2.13}
{"data": "Series 3", "Compound": "CCN1/C(=C/C=C2\\CCCC(/C=C/C3=[N+](CC)c4ccccc4C3(C)C)=C2NCCCCCCCCN2CCC(Nc3nc4ccccc4n3Cc3ccc(F)cc3)CC2)C(C)(C)c2ccccc21", "cell line": "U-87 MG", "tested at": "concentration not given", "baseline": "DMSO"}
{"measured": "RB1CC1 mRNA", "log2 fold change": 1.02}
{"measured": "HEG1 mRNA", "log2 fold change": -2.82}
{"measured": "UBE2T mRNA", "log2 fold change": -1.41}
{"measured": "TNFSF8 mRNA", "log2 fold change": 4.19}
{"measured": "MUC1 mRNA", "log2 fold change": -1.92}
{"measured": "CKAP2 mRNA", "log2 fold change": -1.26}
{"measured": "ZBTB10 mRNA", "log2 fold change": 1.44}
{"measured": "RACGAP1 mRNA", "log2 fold change": -1.62}
{"measured": "CHIC2 mRNA", "log2 fold change": 1.09}
{"measured": "C1GALT1C1 mRNA", "log2 fold change": -1.27}
{"measured": "PRUNE2 mRNA", "log2 fold change": -1.29}
{"data": "Series 4", "SMILES": "Cc1ccc(O)c(C)c1-c1cnc2[nH]c(-c3cnc(N4CCC(CN5CCN(c6cc7c(cc6F)c(N6CCC(=O)NC6=O)nn7C)CC5)CC4)nc3)cc2c1C#N", "target": "Membrane-associated tyrosine- and threonine-specific cdc2-inhibitory kinase (PKMYT1, Homo sapiens, UniProt Q99640)", "Construct (Q99640 1-499)": "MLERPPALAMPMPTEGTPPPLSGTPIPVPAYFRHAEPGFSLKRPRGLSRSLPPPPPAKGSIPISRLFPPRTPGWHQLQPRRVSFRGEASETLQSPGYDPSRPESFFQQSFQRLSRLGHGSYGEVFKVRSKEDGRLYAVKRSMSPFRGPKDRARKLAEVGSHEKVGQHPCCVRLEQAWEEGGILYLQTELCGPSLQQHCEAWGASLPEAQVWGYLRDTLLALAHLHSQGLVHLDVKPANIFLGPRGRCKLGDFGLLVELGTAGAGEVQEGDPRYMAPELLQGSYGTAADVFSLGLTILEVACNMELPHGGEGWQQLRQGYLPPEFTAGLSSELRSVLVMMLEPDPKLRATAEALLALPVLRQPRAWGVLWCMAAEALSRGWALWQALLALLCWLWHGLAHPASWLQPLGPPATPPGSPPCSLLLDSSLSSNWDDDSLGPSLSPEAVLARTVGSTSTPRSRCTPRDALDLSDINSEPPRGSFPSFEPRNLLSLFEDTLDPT"}
{"tested at": "0.000152 µM", "inhibition": "-5.89%"}
{"observed": "cell-free assay", "action": "inhibitor", "technique": "TR-FRET", "tested at": "0.1111 µM", "inhibition": "98.6%"}
{"tested at": "1 µM", "inhibition": "100%"}
{"tested at": "0.1111 µM", "inhibition": "98.7%"}
{"tested at": "0.03704 µM", "inhibition": "94.8%"}
{"tested at": "0.01235 µM", "inhibition": "81.5%"}
{"observed": "cell-free assay", "action": "inhibitor", "technique": "TR-FRET", "tested at": "0.3333 µM", "inhibition": "99.2%"}
{"tested at": "0.00412 µM", "inhibition": "41.1%"}
{"note": "Some of these lines once more (series 2):"}
{"cell line": "A549", "technique": "microarray", "measured": "ADAMTS14", "tested at": "50 µM", "baseline": "untreated", "mRNA level ratio": 1.14}
{"cell line": "PANC-1", "technique": "DNA microarray", "measured": "GZMK", "tested at": "10 µM", "baseline": "untreated cells", "mRNA level ratio": 10.2}
{"cell line": "SK-OV-3", "technique": "microarray", "measured": "ISG20L1", "tested at": "50 µM", "baseline": "untreated", "mRNA level ratio": 2.61}
